Published values collected from several papers.
Numbered parts are unrelated; each lists some results of a single study. Substitutions count along the parent as printed.

Study 1 — technique: RNA Bind-n-Seq; molecule type: RNA; matrix: in vitro; concentration: 365 nM; baseline: no-protein control; direction: higher = stronger binding
Target: RNA binding protein fox-1 homolog 2, RRM domain, GST-SBP tag (RBFOX2, Homo sapiens, UniProt O43251-10, residues 100-194)
Setting: natural RNA segment, single round, ends assumed
Constant ends, left off below: GGGAGUUCUACAGUCCGACGAUC … UGGAAUUCUCGGGUGCCAA
Residues (chain): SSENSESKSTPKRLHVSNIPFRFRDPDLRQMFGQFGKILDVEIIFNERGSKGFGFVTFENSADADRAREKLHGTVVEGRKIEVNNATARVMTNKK
Oligonucleotide	RBNS enrichment (R)
UUUUAAGCUGCAGCCCCGCUGUUCCUUUUCUCCUCUGUCCCAUUUCCUACCUUACAUGAAAUCCAUUCAACCGGCUCUGGACACUUCUCUUAUCUGUUCCCUUCCUGGUU	0.283
CCUUUCAGCAUCCUAGGAAUUUUUAUACUAAAAGCAAAAUGUUUUUUCCAGUUAGUCUUCUUCAAGGAAUUACUAUUGUUCCUUUUGUCACAGGUAAAAUCAGUGUUGGG	0.496
ACCGAGCAGCCACAAGCUGGAAACCACCGGCCAUGAACUUGUCCCAGGAACCAAACACCUCCCCUGCACCUGUUCAUUCCUCCCAGUGGAGACUUCAGAUUGGAAUACCU	0.374
UGCUAUACCCCUCUCCAUUACAGAAACUGGUCCUGUGAGCUAAAAAGUGGGUGUGACUCGUGACUGGGGAGCACUAGGACUGAACACGAAGUGAGGGGUACAGUGUGGGU	0.33
CAGCACAGCAGGGAGUACACGAACUGAUAGAGACCUGUGCUCAGCAGCCAGGUUCUUCAGGUGCUUCUUAAUCAGCCCCUCUGCUCCAGAUGGACCUUUCCCUCCAUGUA	0.276
AACAGUAAUGUUGAUUUCUAGUUAUUUAUUCUGGGAAUGUAUAGUAUUUGAAAACAGAAAUUGGUACCUUGCACACAUCAUCUGUAAACUGUUCAGUUUAAAAUACUGUA	1.28
GAUUGCCUUUAAUAUUUUGUAAUAUUCUGUUUUGUUAAUAUACCCCAAAUUGUGUAUAUAUCUUAUAACUGUUUUAGAAAUUGGUACAUAGGCUUCUAUUACCUAUUAGG	0.568
UAGUUGUCUUUCUAGUUAUGAAAAGAACGUUGACACACGUAGGCAUGGCCGCCCCACUCAGGUGUUCGUUGUUACAGUGCUAAUGGAUCCUGGGUGCAGUAGGCGCUGGG	0.69

Study 2 — technique: DHFR PCA, deep sequencing; matrix: yeast; together with: (+)-ABA 710 µM; baseline: wild-type fitted maximum; direction: higher = stronger binding
Target: ABI1, truncated, D143A, DHFR fusion (Arabidopsis thaliana)
Setting: methotrexate growth selection, single substitutions
Starting sequence: PYL1, truncated, DHFR fusion (Arabidopsis thaliana); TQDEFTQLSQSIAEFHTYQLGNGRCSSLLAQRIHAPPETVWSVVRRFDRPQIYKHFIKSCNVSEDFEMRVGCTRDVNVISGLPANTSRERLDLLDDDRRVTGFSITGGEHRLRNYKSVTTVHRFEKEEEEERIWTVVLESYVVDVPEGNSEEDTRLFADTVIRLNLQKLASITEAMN
Substitution	relative binding score [%]
T119A	71
Q167S	102
L8G	78.1
T73W	99.9
D144F	57.9
T119S	89.9
R163C	78.4

Study 3 — target: CCNE2, cyclin fold, Cln2 fusion (human); technique: yeast growth competition, sequencing; matrix: yeast; setting: strong parent motif; baseline: not given; direction: higher = stronger binding
Starting sequence: SCAPER docking peptide (human); SNARRSLNFGGST; partner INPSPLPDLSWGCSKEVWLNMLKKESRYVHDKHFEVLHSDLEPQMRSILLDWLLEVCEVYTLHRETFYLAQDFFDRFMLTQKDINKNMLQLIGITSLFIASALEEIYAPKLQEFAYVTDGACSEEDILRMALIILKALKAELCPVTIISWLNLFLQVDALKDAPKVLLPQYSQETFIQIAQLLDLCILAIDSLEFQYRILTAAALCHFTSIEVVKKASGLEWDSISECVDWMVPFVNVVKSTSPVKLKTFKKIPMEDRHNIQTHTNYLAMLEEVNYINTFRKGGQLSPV
Substitution	normalised enrichment score
SNARRSLNFTGST [G10T]	1.21
SCARRSLNFGGST [N2C]	1.03
SNARRSTNFGGST [L7T]	0.766
SGARRSLNFGGST [N2G]	2
SNARRSLNFGGSM [T13M]	1.48
SNARRYLNFGGST [S6Y]	1.69
SNDRRSLNFGGST [A3D]	-0.127

Further values, each from its own experiment
Substance	target	assay	test system	setting	how to read	endpoint	value
PhoQ, residues 284 288 289 292 302 303 SLSLLA	PhoP, residues 12 14 15 18 19 NQGLL (Escherichia coli, UniProt P23836)	Sort-seq, item: YFP reporter	E. coli	PhoQ-PhoP variant library, together with: 10 µM Mg2+	baseline: high Mg2+ state, higher = stronger signaling	fold induction	14.7

A few entries again (study 3):
Substitution	normalised enrichment score
SNARRSLNFTGST [G10T]	1.21
SCARRSLNFGGST [N2C]	1.03
